{"data": "Published values collected from several papers", "PARP1": "Poly [ADP-ribose] polymerase 1 (PARP1, Homo sapiens, UniProt P09874)", "note": "Each line is one published result; not all experiments were run side by side. Values joined by “and” are separate records of one study, mostly repeats; a detail may differ. ± gives the spread as reported.", "chain of UniProt P09874 (whole entry, looked up)": "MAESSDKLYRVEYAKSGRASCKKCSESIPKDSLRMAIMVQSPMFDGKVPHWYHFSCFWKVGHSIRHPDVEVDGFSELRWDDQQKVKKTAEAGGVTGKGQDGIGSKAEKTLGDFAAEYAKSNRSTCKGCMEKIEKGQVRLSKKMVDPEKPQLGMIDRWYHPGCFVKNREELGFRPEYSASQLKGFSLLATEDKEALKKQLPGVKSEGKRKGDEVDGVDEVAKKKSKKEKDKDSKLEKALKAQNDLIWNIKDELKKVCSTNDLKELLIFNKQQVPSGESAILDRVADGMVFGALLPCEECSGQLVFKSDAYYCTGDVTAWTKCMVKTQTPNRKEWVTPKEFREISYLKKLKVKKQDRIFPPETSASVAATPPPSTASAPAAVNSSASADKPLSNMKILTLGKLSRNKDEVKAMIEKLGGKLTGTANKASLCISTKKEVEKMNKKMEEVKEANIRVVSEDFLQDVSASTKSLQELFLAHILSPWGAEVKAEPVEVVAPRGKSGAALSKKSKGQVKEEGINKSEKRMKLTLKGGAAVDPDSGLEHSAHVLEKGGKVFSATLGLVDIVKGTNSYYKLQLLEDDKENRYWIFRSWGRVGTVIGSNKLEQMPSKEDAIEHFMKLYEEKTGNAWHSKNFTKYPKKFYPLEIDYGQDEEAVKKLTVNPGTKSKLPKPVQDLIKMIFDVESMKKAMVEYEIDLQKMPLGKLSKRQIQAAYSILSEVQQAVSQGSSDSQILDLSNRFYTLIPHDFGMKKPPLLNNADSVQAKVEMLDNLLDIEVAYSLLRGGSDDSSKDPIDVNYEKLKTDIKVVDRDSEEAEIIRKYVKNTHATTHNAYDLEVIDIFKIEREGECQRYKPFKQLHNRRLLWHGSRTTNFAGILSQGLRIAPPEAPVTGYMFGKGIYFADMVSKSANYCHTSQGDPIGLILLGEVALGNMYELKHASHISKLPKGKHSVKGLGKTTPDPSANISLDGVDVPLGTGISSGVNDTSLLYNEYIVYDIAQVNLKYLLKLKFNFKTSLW", "chain of UniProt P33527 (whole entry, looked up)": "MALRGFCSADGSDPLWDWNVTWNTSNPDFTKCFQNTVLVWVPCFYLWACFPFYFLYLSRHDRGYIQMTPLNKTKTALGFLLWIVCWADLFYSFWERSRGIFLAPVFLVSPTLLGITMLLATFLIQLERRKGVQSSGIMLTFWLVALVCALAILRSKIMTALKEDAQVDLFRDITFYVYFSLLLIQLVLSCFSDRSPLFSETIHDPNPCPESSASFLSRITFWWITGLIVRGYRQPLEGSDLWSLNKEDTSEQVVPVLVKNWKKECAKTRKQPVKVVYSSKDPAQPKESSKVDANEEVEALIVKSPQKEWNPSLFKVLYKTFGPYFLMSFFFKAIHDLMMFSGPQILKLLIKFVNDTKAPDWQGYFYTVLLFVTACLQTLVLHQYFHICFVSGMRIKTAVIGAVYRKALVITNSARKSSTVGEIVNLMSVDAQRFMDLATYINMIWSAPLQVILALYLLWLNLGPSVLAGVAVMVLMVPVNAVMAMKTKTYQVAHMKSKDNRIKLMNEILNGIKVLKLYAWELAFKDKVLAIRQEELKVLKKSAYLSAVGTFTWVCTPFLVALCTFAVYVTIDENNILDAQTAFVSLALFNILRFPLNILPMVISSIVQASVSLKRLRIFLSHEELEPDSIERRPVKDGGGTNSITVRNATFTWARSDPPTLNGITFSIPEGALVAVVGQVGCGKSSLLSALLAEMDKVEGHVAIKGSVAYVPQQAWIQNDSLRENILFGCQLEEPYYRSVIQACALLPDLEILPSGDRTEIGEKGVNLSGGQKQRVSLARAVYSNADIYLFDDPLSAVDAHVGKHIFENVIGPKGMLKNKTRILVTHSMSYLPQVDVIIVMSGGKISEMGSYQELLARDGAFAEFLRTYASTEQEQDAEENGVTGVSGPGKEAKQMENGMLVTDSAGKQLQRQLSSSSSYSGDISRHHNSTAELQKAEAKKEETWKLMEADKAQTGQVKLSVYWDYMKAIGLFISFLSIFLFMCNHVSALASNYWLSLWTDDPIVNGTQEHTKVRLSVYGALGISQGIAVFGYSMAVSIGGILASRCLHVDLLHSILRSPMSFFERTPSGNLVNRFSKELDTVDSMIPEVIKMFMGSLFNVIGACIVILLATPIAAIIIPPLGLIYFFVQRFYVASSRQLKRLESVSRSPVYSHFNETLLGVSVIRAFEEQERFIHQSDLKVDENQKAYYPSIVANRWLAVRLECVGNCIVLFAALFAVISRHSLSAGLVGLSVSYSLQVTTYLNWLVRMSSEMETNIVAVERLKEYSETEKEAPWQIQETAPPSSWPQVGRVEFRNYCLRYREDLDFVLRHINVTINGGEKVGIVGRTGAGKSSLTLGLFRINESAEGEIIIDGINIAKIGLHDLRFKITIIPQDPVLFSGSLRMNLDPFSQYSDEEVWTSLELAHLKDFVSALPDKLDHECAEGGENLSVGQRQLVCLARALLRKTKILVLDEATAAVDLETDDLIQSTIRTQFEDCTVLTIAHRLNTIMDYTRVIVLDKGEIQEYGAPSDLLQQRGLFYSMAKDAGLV", "chain of UniProt P04191 (whole entry, looked up)": "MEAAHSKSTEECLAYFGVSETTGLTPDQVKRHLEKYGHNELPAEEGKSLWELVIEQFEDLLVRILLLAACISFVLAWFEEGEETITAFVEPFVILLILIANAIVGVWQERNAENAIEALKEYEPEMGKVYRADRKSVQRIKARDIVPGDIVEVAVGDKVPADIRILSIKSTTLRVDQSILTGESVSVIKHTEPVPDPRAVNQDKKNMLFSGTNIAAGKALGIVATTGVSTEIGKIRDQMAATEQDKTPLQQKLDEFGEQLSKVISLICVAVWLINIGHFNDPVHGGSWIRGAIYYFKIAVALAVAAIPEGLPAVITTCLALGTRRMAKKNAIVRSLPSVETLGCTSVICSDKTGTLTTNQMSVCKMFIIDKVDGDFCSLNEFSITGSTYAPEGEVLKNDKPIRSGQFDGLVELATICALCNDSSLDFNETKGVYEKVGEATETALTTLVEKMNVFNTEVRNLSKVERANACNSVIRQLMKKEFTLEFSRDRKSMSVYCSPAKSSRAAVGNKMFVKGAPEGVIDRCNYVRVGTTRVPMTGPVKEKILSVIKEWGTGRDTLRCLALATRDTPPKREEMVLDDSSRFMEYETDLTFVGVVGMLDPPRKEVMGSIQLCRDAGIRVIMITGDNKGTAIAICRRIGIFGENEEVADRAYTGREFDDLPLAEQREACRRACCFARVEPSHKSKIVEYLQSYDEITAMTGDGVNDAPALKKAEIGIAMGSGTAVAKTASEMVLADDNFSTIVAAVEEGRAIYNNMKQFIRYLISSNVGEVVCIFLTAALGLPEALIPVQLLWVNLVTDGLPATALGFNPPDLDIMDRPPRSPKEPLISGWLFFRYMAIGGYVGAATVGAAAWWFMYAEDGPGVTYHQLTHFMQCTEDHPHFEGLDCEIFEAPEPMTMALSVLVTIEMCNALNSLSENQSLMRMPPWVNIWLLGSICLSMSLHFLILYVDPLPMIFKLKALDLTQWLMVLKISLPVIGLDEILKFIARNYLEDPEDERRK", "chain of UniProt O15379 (whole entry, looked up)": "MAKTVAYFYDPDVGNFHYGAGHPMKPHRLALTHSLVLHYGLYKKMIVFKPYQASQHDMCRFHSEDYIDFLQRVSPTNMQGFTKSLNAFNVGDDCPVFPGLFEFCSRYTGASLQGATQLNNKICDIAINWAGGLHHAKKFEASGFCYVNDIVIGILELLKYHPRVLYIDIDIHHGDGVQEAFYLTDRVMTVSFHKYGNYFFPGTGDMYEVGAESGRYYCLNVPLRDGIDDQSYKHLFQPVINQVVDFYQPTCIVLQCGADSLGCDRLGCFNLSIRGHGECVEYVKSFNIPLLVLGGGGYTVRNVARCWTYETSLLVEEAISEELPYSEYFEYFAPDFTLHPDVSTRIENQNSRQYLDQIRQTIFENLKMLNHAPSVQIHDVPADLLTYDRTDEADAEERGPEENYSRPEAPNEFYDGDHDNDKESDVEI", "chain of UniProt Q06124 (whole entry, looked up)": "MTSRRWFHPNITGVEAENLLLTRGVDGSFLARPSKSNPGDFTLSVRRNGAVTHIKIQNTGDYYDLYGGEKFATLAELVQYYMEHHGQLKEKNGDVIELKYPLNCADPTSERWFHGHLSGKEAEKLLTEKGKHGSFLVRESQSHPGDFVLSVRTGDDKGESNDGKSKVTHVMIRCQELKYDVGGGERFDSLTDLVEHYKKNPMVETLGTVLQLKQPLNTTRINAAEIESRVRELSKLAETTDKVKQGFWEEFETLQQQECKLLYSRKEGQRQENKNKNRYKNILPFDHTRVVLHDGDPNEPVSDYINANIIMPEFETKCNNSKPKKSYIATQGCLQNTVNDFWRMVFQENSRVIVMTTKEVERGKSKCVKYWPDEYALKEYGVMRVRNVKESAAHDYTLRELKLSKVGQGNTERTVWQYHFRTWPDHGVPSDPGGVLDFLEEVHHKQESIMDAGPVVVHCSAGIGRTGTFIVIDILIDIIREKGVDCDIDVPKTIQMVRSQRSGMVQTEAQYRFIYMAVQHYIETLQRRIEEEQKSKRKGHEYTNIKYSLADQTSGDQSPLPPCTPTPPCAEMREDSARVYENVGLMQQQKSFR", "chain of UniProt P05177 (whole entry, looked up)": "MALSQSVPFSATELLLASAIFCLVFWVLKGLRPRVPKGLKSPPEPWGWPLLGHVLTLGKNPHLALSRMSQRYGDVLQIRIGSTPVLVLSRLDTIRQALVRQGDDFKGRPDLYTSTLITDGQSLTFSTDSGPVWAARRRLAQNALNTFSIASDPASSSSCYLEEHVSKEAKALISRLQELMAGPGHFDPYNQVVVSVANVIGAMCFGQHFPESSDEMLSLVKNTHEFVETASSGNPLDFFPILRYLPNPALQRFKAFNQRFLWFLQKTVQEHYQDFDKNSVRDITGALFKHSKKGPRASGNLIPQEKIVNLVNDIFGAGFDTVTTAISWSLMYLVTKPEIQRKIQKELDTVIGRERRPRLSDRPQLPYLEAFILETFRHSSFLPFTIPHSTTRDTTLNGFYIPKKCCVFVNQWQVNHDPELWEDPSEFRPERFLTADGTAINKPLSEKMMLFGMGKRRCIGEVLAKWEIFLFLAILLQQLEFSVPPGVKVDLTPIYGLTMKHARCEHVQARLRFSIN"}
{"Compound": "NC(=O)c1cccc2c1OCO2", "target": "PARP1", "IC50": "> 2.5 µM and ≥ 2.5 µM"}
{"Compound": "COc1cc(/C=C/C(=O)CC(=O)/C=C/c2ccc(O)c(OC)c2)ccc1O", "target": "Hsd3b1 (Rattus norvegicus, UniProt P22071)", "test": "enzyme activity, inhibitor", "test system": "rat testicular microsomes", "conditions": "lower bound from 100 µM screen, added: pregnenolone", "IC50": "< 100 µM"}
{"Compound": "O=C(O)C(Cc1c[nH]nn1)[C@@H]1CCN[C@H]1C(=O)O (mixture of isomers)", "target": "AMPA receptor, rat", "test": "binding", "test system": "cortical synaptosomes", "conditions": "added: [3H]-AMPA", "IC50": "> 100 µM"}
{"Compound": "NC(=O)N1c2ccccc2C=Cc2ccccc21", "target": "SCN8A (Homo sapiens, UniProt Q9UQD0)", "test": "ion current, inhibitor, automated patch clamp", "conditions": "held at V0.5 inactivation for 10 s", "IC50": "25.6 µM"}
{"Compound": "Cn1cnc2c(NCc3ccc(CNCCCNC4CCCCC4)cc3)nc(N3CCNCC3)nc21", "target": "CXCR4 (Homo sapiens, UniProt P61073)", "test": "ligand displacement, radioligand", "conditions": "cell membranes", "IC50": "0.0862 µM"}
{"Compound": "CCOC(=O)CC1C(C(=O)OCC)=C(N)Oc2ccc(-c3cc(OC)cc(OC)c3)cc21 (single isomer, unassigned; (-))", "target": "ATP2A1 (Oryctolagus cuniculus, UniProt P04191)", "test": "ATPase activity, inhibitor, absorbance", "IC50": "13.5 µM"}
{"Compound": "O=C(CSc1nc2ccccc2c(=O)n1-c1ccccc1)Nc1ccc(C(=O)C=Cc2ccc(Cl)cc2)cc1", "target": "PARP1", "test": "enzyme activity, inhibitor, absorbance", "IC50": "0.173 µM"}
{"Compound": "CC(=O)c1ccc(NS(=O)(=O)c2ccc3c(c2)n(C)c(=O)c(=O)n3C)cc1", "target": "DPP4 (Homo sapiens, UniProt P27487)", "test": "enzyme activity, inhibitor, fluorescence", "IC50": "0.00128 µM"}
{"Compound": "O=C(O[C@@H]1Cc2c(O)cc(O)cc2O[C@@H]1c1cc(O)c(O)c(O)c1)c1cc(O)c(O)c(O)c1", "target": "Cell division cycle 7-related protein kinase, with DBF4 (CDC7, Homo sapiens, UniProt O00311)", "test": "enzyme activity, inhibitor, ADP-Glo luminescence", "conditions": "added: ATP 12.5 µM", "IC50": "38.6 ± 24.9 µM"}
{"Compound": "COc1ccc(-c2cc(=O)c3c(OC)c([C@@H]4O[C@H](C(=O)Nc5ccc(F)cc5)[C@@H](O)[C@H](O)[C@H]4O)c(OC)cc3o2)cc1OC", "target": "GSK3B (Homo sapiens, UniProt P49841)", "test": "enzyme activity, inhibitor, ADP detection", "IC50": "56.2 µM"}
{"Compound": "COc1cc2nccc(Oc3ccc(NC(=O)NC4CC4)c(Cl)c3)c2cc1C(N)=O", "target": "SLC29A1 (Homo sapiens, UniProt Q99808)", "test": "transporter uptake, inhibitor, radiometric", "IC50": "7.4 µM"}
{"Compound": "NS(=O)(=O)c1cccc(S(=O)(=O)c2ccc(Cl)c(Cl)c2)c1", "target": "mbtI (Mycobacterium tuberculosis, UniProt P9WFX1)", "test": "enzyme activity, inhibitor, fluorescence", "conditions": "pH 8", "IC50": "35.1 µM"}
{"Compound": "CN1CCN(C2=Nc3ccccc3Oc3ccc(Cl)cc32)CC1", "target": "ABCC1 (Homo sapiens, UniProt P33527)", "test": "substrate efflux, inhibitor, flow cytometry", "test system": "ABCC1-overexpressing SupT1-Vin cells", "conditions": "added: BODIPY-FL-thapsigargin 100 nM", "IC50": "15.5 ± 5.8 µM"}
{"Compound": "N#Cc1cnc2cnc(NCc3cccnc3)cc2c1Nc1ccc(F)c(Cl)c1", "target": "PSMB5 (Homo sapiens, UniProt P28074)", "test": "enzyme activity", "conditions": "added: Suc-LLVY-AMC substrate, ATP", "IC50": "> 30 µM"}
{"Compound": "[Na+].[Na+].[Na+].[O]=[V]([O-])([O-])[O-]", "target": "PTPN11 (Homo sapiens, UniProt Q06124)", "test": "enzyme activity, inhibitor, fluorescence", "IC50": "11.8 µM"}
{"Compound": "C#Cc1ccc2c(-c3ccccc3)c(C)c(=O)oc2c1", "target": "Cytochrome P450 1A2 (CYP1A2, Homo sapiens, UniProt P05177)", "test": "enzyme activity, inhibitor", "conditions": "6 min, pH 7.6", "IC50": "1.68 µM"}
{"Compound": "O=C(/C=C/c1ccc(O)c(O)c1)O[C@@H]1C[C@](O)(C(=O)O)C[C@@H](O)[C@H]1O", "target": "COMT (Homo sapiens, UniProt P21964)", "test": "O-methylation", "test system": "human liver cytosol", "conditions": "mean over samples, added: 2-hydroxyestradiol 10 µM", "IC50": "1.3 ± 0.1 µM"}
{"Compound": "COc1ccc([C@H](CC(=O)O)N2CCN(CCCc3ccc4c(n3)NCCC4)C2=O)cn1", "target": "Integrin alpha-V/beta-3 (Homo sapiens, UniProt P05106+P06756)", "test": "vitronectin binding, inhibitor, ELISA", "IC50": "0.0028 ± 0.0034 µM"}
{"Compound": "CCCCNNC(=O)c1ccc(Br)cc1", "target": "HDAC3 (Homo sapiens, UniProt O15379)", "test": "enzyme activity, inhibitor", "IC50": "0.19 µM"}
{"note": "For quick reference, copied from above:"}
{"Compound": "NS(=O)(=O)c1cccc(S(=O)(=O)c2ccc(Cl)c(Cl)c2)c1", "target": "mbtI (Mycobacterium tuberculosis, UniProt P9WFX1)", "test": "enzyme activity, inhibitor, fluorescence", "conditions": "pH 8", "IC50": "35.1 µM"}
{"Compound": "CN1CCN(C2=Nc3ccccc3Oc3ccc(Cl)cc32)CC1", "target": "ABCC1 (Homo sapiens, UniProt P33527)", "test": "substrate efflux, inhibitor, flow cytometry", "test system": "ABCC1-overexpressing SupT1-Vin cells", "conditions": "added: BODIPY-FL-thapsigargin 100 nM", "IC50": "15.5 ± 5.8 µM"}
{"Compound": "N#Cc1cnc2cnc(NCc3cccnc3)cc2c1Nc1ccc(F)c(Cl)c1", "target": "PSMB5 (Homo sapiens, UniProt P28074)", "test": "enzyme activity", "conditions": "added: Suc-LLVY-AMC substrate, ATP", "IC50": "> 30 µM"}
